Experimental data pooled from the literature.
± marks the error that the study gave.
B1: UGT1A9 (Homo sapiens, UniProt O60656); chain GKLLVVPMDGSHWFTMRSVVEKLILRGHEVVVVMPEVSWQLGRSLNCTVKTYSTSYTLEDLDREFKAFAHAQWKAQVRSIYSLLMGSYNDIFDLFFSNCRSLFKDKKLVEYLKESSFDAVFLDPFDNCGLIVAKYFSLPSVVFARGILCHYLEEGAQCPAPLSYVPRILLGFSDAMTFKERVRNHIMHLEEHLLCHRFFKNALEIASEILQTPVTEYDLYSHTSIWLLRTDFVLDYPKPVMPNMIFIGGINCHQGKPLPMEFEAYINASGEHGIVVFSLGSMVSEIPEKKAMAIADALGKIPQTVLWRYTGTRPSNLANNTILVKWLPQNDLLGHPMTRAFITHAGSHGVYESICNGVPMVMMPLFGDQMDNAKRMETKGAGVTLNVLEMTSEDLENALKAVINDKSYKENIMRLSSLHKDRPVEPLDLAVFWVEFVMRHKGAPHLRPAAHDLTWYQYHSLDVIGFLLAVVLTVAFITFKCCAYGYRKCLGKKGRVKKAHKSKTH

Substance | target or system | test | test system | setting | how to read | endpoint | value
FC(F)(F)Oc1ccc(-c2cc3ccccc3[nH]2)cc1 | HEK293 NF-κB luciferase reporter | reporter gene, item: NF-κB |  | 50 µM, 6 h, with: TNFα |  | inhibition | 79.7 ± 8.8%
LRRFSTMPFAFININNVINF | HUVEC | cell migration, real-time cell analysis | peptide | 50 µM, with: full medium chemoattractant | reference: vehicle | inhibition | 69.33 ± 0.14%
C/C(=N\N=C1/NC(=O)/C(=C\c2ccc(Cl)cc2)S1)c1ccccn1 | Vero | cell growth or viability, SRB |  | 100 µg/mL, 48 h |  | inhibition | 55.8%
CC(C)=CCc1c(-c2ccccc2)n(CC=C(C)C)c2ccccc12 | HEK293 NF-κB luciferase reporter | reporter gene, item: NF-κB |  | 50 µM, 6 h, with: TNFα |  | inhibition | 60.9 ± 1.1%
C/C(=N\N=C1/NC(=O)/C(=C\c2ccc(F)cc2)S1)c1ccccn1 | Vero | cell growth or viability, SRB |  | 100 µg/mL, 48 h |  | inhibition | 57.6%
LRRFSTMPFMFININNVINF | HUVEC | cell proliferation, WST-1 | peptide | 100 µM, 72 h | reference: vehicle | inhibition | 73.2 ± 0.78%
CCN1C(=O)C(C)S/C1=N/N=C(\C)c1ccccn1 (stereo not shown) | Vero | cell growth or viability, SRB |  | 100 µg/mL, 48 h |  | inhibition | 60.6%
LRRFSTMPFMFCNINNVCNF | HUVEC | cell migration, real-time cell analysis | peptide | 50 µM, with: full medium chemoattractant | reference: vehicle | inhibition | 91.02 ± 0.63%
[O-][n+]1nc(NCCNc2n[n+]([O-])c3ccccc3[n+]2[O-])nc2ccccc21 | HUVEC and fibroblast co-culture | tube formation |  | 20 µM, 11 d |  | inhibition | 80 to 90%
CON=Cc1c(-c2ccccc2)[nH]c2ccccc12 | HEK293 NF-κB luciferase reporter | reporter gene, item: NF-κB |  | 50 µM, 6 h, with: TNFα |  | inhibition | 48.8 ± 8%
CCN1C(=O)/C(=C\c2ccc(OC)cc2)S/C1=N/N=C(\C)c1ccccn1 | Vero | cell growth or viability, SRB |  | 100 µg/mL, 48 h |  | inhibition | 57%
COc1cc(OC)cc(-c2cc3ccccc3[nH]2)c1 | HEK293 NF-κB luciferase reporter | reporter gene, item: NF-κB |  | 50 µM, 6 h, with: TNFα |  | inhibition | 56.4 ± 2.3%
LRRFSTMPFMFSNINNVSNF | HUVEC | cell adhesion, real-time cell analysis | peptide | 100 µM, 3 h | reference: vehicle | inhibition | 98 ± 1.27%
c1ccc(Cc2c(-c3ccccc3)n(Cc3ccccc3)c3ccccc23)cc1 | HEK293 NF-κB luciferase reporter | reporter gene, item: NF-κB |  | 50 µM, 6 h, with: TNFα |  | inhibition | 0%
CCN1C(=O)/C(=C\c2ccc(OC)c(OC)c2)S/C1=N/N=C(\C)c1ccccn1 | Vero | cell growth or viability, SRB |  | 100 µg/mL, 48 h |  | inhibition | 52.7%
CN(C)c1ccc(-c2cc3ccccc3[nH]2)cc1 | HEK293 NF-κB luciferase reporter | reporter gene, item: NF-κB |  | 50 µM, 6 h, with: TNFα |  | inhibition | 95.9 ± 0.2%
Cc1cc(N=Nc2cc(S(=O)(=O)O)c(C)cc2C)c(N)cc1O | U2OS | p53 reporter gene, p21 luciferase |  | 50 µM, with: doxorubicin |  | inhibition | ~100%
LRRFSTMPFMFTNINNVTNF | HUVEC | cell proliferation, WST-1 | peptide | 100 µM, 72 h | reference: vehicle | inhibition | 59.1 ± 0.85%
Brc1ccc(-c2cc3ccccc3[nH]2)cc1 | HEK293 NF-κB luciferase reporter | reporter gene, item: NF-κB |  | 50 µM, 6 h, with: TNFα |  | inhibition | 82.3 ± 0.8%
CC(=O)C1S/C(=N/N=C(\C)c2ccccn2)NC1=O (stereo not shown) | Vero | cell proliferation, SRB |  | 100 µg/mL, 48 h |  | inhibition | < 45%
LRRFSTMPFMFGNINNVGNF | HUVEC | cell proliferation, WST-1 | peptide | 100 µM, 72 h | reference: vehicle | inhibition | 25.7 ± 0.78%
O=[N+]([O-])c1ccc2[nH]c(-c3ccccc3)cc2c1 | HEK293 NF-κB luciferase reporter | reporter gene, item: NF-κB |  | 50 µM, 6 h, with: TNFα |  | inhibition | 92.8 ± 4%
LRRFSTMPFMFANINNVANF | HUVEC | cell migration, real-time cell analysis | peptide | 50 µM, with: full medium chemoattractant | reference: vehicle | inhibition | 99.59 ± 0.13%
heparin | bovine aortic endothelial cells | cell adhesion to collagen NC1 domain |  | 0.3 µg/mL, 60 min, 37 °C |  | inhibition | ~50%
COc1ccc(/C=C2/S/C(=N/N=C(\C)c3ccccn3)NC2=O)cc1OC | Vero | cell growth or viability, SRB |  | 100 µg/mL, 48 h |  | inhibition | 55.8%
Nc1n[n+]([O-])c2ccccc2[n+]1[O-] | HUVEC and fibroblast co-culture | tube formation |  | 20 µM, 11 d |  | inhibition | 50%
CC(=O)c1s/c(=N/N=C(\C)c2ccccn2)[nH]c1C | Vero | cell growth or viability, SRB |  | 100 µg/mL, 48 h |  | inhibition | 63.6%
B1 (UGT1A9) | COc1cc(-c2cc(=O)c3c(O)cc(O)cc3o2)cc(OC)c1OC | steady-state kinetics |  | pH 7.4, 37 °C |  | Vmax/Km | 849 µL/min/mg
